Results of several laboratories.
Each line is one published result; not all experiments were run side by side. ± gives the spread as reported.

`Cc1cccc(CNC(=O)c2cn(CCNC(=O)c3ccccc3S)c3cc4c(cc3c2=O)OC(F)(F)O4)n1` has a half-life of 0.99 ± 0.28 h (Sprague-Dawley rat, male, plasma; intravenous, 5 mg/kg).
With `CC(C)[C@@H](CN1CC[C@@](C)(c2cccc(O)c2)[C@@H](C)C1)NC(=O)[C@H]1Cc2ccc(O)cc2CN1` the half-life was 65.3 h (Sprague-Dawley rat, brain; intraperitoneal, 10 mg/kg).
The half-life of `Cl.[2H]C([2H])([2H])CC(=O)c1cnc(NC(=O)C2CC2)cc1Nc1cccc(-c2ncn(C([2H])([2H])[2H])n2)c1OC` is reported as 9.61 h (human, fasted, multiple dose; oral, 20 mg twice daily, tablet, day 14, geometric mean).
For `CC(C)C[C@H](NC(=O)C[C@H](O)[C@H](CC(C)C)NC(=O)[C@H](Cc1c[nH]cn1)NC(=O)CNC(=O)[C@@H](NC(=O)[C@H](C)NC(=O)[C@H](Cc1c[nH]c2ccccc12)NC(=O)[C@H](CCC(N)=O)NC(=O)[C@@H](Cc1ccccc1)NC(=O)COCCOCCNC(=O)CCC(C(=O)O)N1CCN(CC(=O)O)CCN(CC(=O)O)CCN(CC(=O)O)CC1)C(C)C)C(N)=O` (stereo partly drawn) [lutetium-177 labelled], the tissue uptake was 0.07 ± 0.07 %ID/g (female BALB/c nu/nu mice, bone; intravenous, 50 pmol, 24 h).
`CCOc1c([C@H](C)n2nc(C)c3c(N)ncnc32)cc(Cl)c(F)c1[C@@H]1CNC(=O)C1` gave a half-life of 11.2 ± 2.1 h (patients, monotherapy; oral, 45 mg once daily, cycle 1 day 15).
`COc1ccc2[nH]cc(CCNC(=O)Nc3ccc(Cl)c(Cl)c3)c2c1` has a Kd of > 100 µM (Cyclin-dependent kinase 2, with cyclin A (CDK2, Homo sapiens, UniProt P24941)).
`CCn1cc(C(=O)N2CCOCC2)c(=O)c2cc(NC3Cc4ccccc4C3)cnc21` has a half-life of 4.55 h (human female, fed, plasma; oral, 900 mg twice daily, day 1, tablet, arithmetic mean).
Under “fold change in expression”, `Cn1cc(-c2ccc(-c3cncc(Cl)c3N3CCC4(CCNC4=O)CC3)cc2)cn1` is recorded as 3.35 (COLO 205; microarray, item: BBC3; concentration not given, 6 h, gene set PUMA; relative to: untreated cells).
`Cc1cccc(CNC(=O)c2cn(CCNC(=O)c3ccccc3Sc3c([N+](=O)[O-])ncn3C)c3cc4c(cc3c2=O)OC(F)(F)O4)n1` gave a half-life of 1.9 h (Sprague-Dawley rat, male, plasma; intravenous, 20 mg/kg of parent drug).
`N=C(N)NCCNC(=O)C1(Nc2ccccc2)CCN(Cc2ccccc2)CC1` gave a half-life of 0.9 ± 0.1 h (male Sprague-Dawley rats, plasma; intravenous, 2.5 mg/kg).
For `Cc1cc(NC(=O)c2cccc(NC(=O)/C=C/CN(C)C)c2)ccc1Nc1nccc(-c2cccnc2)n1`, the half-life was 5.02 h (Wistar rat male, blood plasma; 1 µM).
`CNCc1ccc(-c2[nH]c3cc(F)cc4c3c2CCNC4=O)cc1`: “AST/ALT increased incidence” 0% (human patients; oral, 240 mg twice daily, all grades).

Repeated from above:
`Cc1cccc(CNC(=O)c2cn(CCNC(=O)c3ccccc3S)c3cc4c(cc3c2=O)OC(F)(F)O4)n1` has a half-life of 0.99 ± 0.28 h (Sprague-Dawley rat, male, plasma; intravenous, 5 mg/kg).
